Measurements from different studies.
Numbered parts are unrelated; each lists some results of a single study.

Set 1
Target: Sal-like protein 4, full length isoform A (SALL4, Homo sapiens, UniProt Q9UJQ4, residues 1-1053)
UniProt Q9UJQ4, sequence (whole entry, looked up): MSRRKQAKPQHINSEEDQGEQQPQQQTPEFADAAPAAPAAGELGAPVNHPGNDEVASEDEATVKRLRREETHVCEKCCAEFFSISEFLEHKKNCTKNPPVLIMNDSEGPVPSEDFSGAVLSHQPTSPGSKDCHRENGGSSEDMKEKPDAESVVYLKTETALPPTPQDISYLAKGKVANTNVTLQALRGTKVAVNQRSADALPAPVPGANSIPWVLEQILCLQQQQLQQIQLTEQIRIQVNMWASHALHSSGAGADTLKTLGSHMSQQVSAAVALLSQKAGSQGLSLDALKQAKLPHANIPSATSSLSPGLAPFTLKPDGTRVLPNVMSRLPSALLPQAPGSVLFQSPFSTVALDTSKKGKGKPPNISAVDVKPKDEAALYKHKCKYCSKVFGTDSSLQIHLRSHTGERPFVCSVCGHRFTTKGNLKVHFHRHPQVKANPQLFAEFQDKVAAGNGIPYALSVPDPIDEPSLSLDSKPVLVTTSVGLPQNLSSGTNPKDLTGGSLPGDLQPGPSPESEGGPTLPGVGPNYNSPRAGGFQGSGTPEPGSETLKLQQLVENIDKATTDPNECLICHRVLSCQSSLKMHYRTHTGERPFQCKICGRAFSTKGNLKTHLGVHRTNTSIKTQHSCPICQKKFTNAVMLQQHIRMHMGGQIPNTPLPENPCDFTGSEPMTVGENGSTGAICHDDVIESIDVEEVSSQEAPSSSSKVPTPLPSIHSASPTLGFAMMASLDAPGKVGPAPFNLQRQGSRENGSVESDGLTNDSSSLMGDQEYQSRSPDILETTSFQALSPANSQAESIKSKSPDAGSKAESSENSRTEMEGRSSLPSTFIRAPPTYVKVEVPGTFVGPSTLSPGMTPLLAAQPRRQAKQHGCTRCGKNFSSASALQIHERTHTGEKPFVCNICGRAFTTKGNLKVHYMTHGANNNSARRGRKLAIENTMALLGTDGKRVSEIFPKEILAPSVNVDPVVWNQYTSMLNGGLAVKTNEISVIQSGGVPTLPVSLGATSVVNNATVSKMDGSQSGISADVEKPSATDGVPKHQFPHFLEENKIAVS
Technique: universal PBM
Form: double-stranded DNA, one strand shown
Sample: in vitro
Concentration: 600 nM
Setting: 8-mer, flanks averaged, mean of replicates
Reading: higher = stronger binding
`GTCATAGA` has an E-score of 0.184.
The E-score of `AAGAAATC` is reported as 0.111.
`CTATTGTC` has an E-score of -0.0109.
`CGTCCTCA` has an E-score of -0.0878.
`ATAACAAT` has an E-score of 0.31.

Set 2
Target: Prothrombin, mature alpha-thrombin (F2, Homo sapiens, UniProt P00734)
Technique: aptamer microarray, sandwich
Form: DNA with 2'F-ANA
Sample: in vitro
Concentration: 200 nM
Setting: whole 15-mer aptamer, many near background
With: Cy3 exosite-II aptamer, 400 nM
Reading: higher = stronger binding
`GGTTGGTGTGGTTGG (2'F-ANA at 2 5 6 7 8 9 10 12 14)`: “mean fluorescence intensity” 58.6 a.u.
`GGTTGGTGTGGTTGG (2'F-ANA at 1 5 8 9 11 12 13 14)` — result for “mean fluorescence intensity”: 46.6 a.u.
`GGTTGGTGTGGTTGG (2'F-ANA at 2 3 6 9 11 12 13)` — result for “mean fluorescence intensity”: 715 a.u.
`GGTTGGTGTGGTTGG (2'F-ANA at 1 4 5 7 11 13 14)`: “mean fluorescence intensity” 45.9 a.u.

Set 3
Target: Histone acetyltransferase KAT6A, winged helix 2, GST fusion (KAT6A, Homo sapiens, UniProt Q92794, residues 85-181)
Technique: protein binding microarray
Form: double-stranded DNA, one strand shown
Sample: in vitro
Concentration: not given
Setting: 8-mer, flanks averaged, mean of 2 arrays, mostly near background
Baseline: not given
Reading: higher = stronger binding
Construct (chain): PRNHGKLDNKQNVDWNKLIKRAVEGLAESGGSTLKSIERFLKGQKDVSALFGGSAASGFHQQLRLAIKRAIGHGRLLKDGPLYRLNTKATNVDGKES
`CAGAACAC` has an E-score of -0.155.
For `ACGCATTA`, the E-score was -0.0023.
The E-score of `GACAGGTC` is reported as -0.0176.
`AGAGAATG` has an E-score of -0.186.
With `CGTGGTTA` the E-score was -0.241.

Further values, each from its own experiment
For `PhoQ, residues 284 288 289 292 302 303 ALSMDL`, the fold induction was 0.782 (PhoP, residues 12 14 15 18 19 LFHKL (Escherichia coli, UniProt P23836); Sort-seq, measured: YFP reporter; E. coli; PhoQ-PhoP variant library, with: 10 µM Mg2+; baseline: high Mg2+ state, higher = stronger signaling).
